Published values collected from several papers.
Protocols differ between the studies behind these lines. “And” joins repeats or separate records; there may be more than shown. Numbers after ± are the reported error.
Nuclear receptor subfamily 2 group C member 2 ligand-binding domain: Nuclear receptor subfamily 2 group C member 2, ligand-binding domain (Homo sapiens, UniProt P49116)
UniProt P49116, sequence (whole entry, looked up): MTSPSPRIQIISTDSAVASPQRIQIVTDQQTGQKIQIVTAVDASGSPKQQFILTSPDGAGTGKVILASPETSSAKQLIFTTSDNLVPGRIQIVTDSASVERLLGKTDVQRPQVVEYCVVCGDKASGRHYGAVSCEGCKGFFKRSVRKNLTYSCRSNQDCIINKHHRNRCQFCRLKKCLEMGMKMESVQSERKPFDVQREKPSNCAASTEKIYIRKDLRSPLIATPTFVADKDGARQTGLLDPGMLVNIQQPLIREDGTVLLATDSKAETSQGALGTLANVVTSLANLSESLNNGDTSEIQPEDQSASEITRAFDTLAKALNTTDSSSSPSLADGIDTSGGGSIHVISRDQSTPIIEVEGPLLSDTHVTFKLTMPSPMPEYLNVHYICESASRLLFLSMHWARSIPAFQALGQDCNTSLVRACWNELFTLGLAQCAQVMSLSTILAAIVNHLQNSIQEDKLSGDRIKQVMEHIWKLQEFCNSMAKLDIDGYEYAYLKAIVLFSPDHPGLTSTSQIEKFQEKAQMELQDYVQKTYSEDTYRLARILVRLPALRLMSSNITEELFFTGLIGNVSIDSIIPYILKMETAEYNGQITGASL

For `Nc1ccccc1NC(=O)c1ccc(CNC(=O)OCc2cccnc2)cc1`, the viability was 120% (OCI-Ly1; 0.5 µM, 120 h).
`Cn1cc(-c2ccc(-c3cncc(Cl)c3N3CCC4(CCNC4=O)CC3)cc2)cn1`: “fold change in expression” 1.4 (COLO 205; microarray, refers to: FOSB; concentration not given, 2 h; baseline: untreated cells).
For `Cc1cccc(-c2[nH]c(CNc3ccccc3F)nc2-c2ccc3ncnn3c2)n1`, the viability was 78% and 102% and 98% (MM1.S; XTT; 0.4 µM).
The viability of `Nc1cc(OCc2ccc(C(F)(F)F)cc2)ccc1NC(=O)CO` is reported as 108 ± 2.13% (sample A patient iPSC-derived NPCs; MTS; 10 µM, 24 h; baseline: vehicle).
`COc1cc2ncnc(Nc3ccc(Oc4ccccc4)c(C)c3C)c2cc1OC` has a viability of 72.7% (LoVo (KRAS G13D); resazurin; 3 µM, 72 h, added: trametinib 0 nM).
For `C=CC[C@@H]1/C=C(\C)C[C@H](C)C[C@H](OC)[C@H]2O[C@@](O)(C(=O)C(=O)N3CCCC[C@H]3C(=O)O[C@H](/C(C)=C/[C@@H]3CC[C@@H](O)[C@H](OC)C3)[C@H](C)[C@@H](O)CC1=O)[C@H](C)C[C@@H]2OC`, the Kd was 15.6 nM (Nuclear receptor subfamily 2 group C member 2 ligand-binding domain; SPR imaging).
`OCc1nc2cc(C(O)c3ccc(F)cc3)ccc2[nH]1` (stereo not drawn) gave a viability of 102 ± 4.25% (sample A patient iPSC-derived NPCs; MTS; 10 µM, 24 h; baseline: vehicle).
With `Nc1ncnc2c1ncn2[C@@H]1O[C@H](CSCC[C@H](N)C(=O)O)[C@@H](O)[C@H]1O` the viability was 156% (OCI-Ly1; 1 µM, 120 h).
`OCc1nc2ccc(OCc3ccc(C(F)(F)F)cc3)cc2[nH]1` has a viability of 106.9 ± 0.61% (sample A patient iPSC-derived NPCs; MTS; 10 µM, 24 h; baseline: vehicle).
`COc1cc2ncnc(Nc3ccc(Oc4ccccc4)cc3C)c2cc1OC` gave a viability of 85.7% (COLO 205 (BRAF V600E); resazurin; 1 µM, 72 h, added: trametinib 0 nM).
`CN1CC2c3ccccc3Oc3ccc(Cl)cc3C2C1` (stereo not drawn) has a Kd of 2.2 nM (Nuclear receptor subfamily 2 group C member 2 ligand-binding domain; SPR imaging).
`Nc1ccccc1NC(=O)CCCCCCC(=O)Nc1ccccc1` gave a viability of 73.7% (OCI-Ly1; 1 µM, 120 h).

Repeated from above:
`Cn1cc(-c2ccc(-c3cncc(Cl)c3N3CCC4(CCNC4=O)CC3)cc2)cn1`: “fold change in expression” 1.4 (COLO 205; microarray, refers to: FOSB; concentration not given, 2 h; baseline: untreated cells).
